Measured values of several laboratories.
Each numbered part is a random draw from the data of one study; scales do not carry over between parts.
UniProt P27361, sequence (whole entry, looked up): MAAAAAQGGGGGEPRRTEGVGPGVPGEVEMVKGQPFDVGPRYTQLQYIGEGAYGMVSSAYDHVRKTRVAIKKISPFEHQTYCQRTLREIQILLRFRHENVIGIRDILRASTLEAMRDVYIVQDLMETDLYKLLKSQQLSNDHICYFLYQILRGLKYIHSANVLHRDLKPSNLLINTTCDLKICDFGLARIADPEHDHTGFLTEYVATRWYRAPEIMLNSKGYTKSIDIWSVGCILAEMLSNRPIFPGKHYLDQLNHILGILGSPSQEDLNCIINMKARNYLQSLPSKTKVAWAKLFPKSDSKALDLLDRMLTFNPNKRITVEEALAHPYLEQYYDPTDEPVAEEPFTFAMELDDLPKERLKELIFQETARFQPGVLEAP
UniProt P11362, sequence (whole entry, looked up): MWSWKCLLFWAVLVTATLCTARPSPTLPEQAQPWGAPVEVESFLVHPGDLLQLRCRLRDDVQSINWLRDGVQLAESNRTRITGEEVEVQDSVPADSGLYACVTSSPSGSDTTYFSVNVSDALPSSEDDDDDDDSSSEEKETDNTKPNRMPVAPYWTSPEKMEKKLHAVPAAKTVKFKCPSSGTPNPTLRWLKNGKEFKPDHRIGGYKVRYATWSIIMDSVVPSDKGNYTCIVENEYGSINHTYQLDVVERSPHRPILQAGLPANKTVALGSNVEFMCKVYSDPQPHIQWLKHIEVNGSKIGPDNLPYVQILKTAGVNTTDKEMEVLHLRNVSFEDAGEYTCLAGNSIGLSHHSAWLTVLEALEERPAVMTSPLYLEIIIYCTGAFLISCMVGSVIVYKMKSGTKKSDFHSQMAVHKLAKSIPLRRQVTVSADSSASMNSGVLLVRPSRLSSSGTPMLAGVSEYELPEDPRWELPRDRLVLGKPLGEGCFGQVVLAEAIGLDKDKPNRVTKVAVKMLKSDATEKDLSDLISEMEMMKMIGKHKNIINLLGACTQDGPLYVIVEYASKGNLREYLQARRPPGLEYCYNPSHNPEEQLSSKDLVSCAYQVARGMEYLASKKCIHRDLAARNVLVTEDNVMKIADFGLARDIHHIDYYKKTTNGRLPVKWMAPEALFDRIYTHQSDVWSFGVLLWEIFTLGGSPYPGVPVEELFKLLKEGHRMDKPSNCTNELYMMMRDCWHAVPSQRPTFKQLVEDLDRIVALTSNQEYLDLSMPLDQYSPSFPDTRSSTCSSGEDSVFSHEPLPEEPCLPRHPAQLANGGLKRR
UniProt P33078, sequence (whole entry, looked up): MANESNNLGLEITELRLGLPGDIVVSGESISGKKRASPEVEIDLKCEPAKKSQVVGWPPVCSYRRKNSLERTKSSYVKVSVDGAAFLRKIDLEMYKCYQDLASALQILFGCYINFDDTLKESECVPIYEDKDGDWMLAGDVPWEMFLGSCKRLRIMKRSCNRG
UniProt Q12866, sequence (whole entry, looked up): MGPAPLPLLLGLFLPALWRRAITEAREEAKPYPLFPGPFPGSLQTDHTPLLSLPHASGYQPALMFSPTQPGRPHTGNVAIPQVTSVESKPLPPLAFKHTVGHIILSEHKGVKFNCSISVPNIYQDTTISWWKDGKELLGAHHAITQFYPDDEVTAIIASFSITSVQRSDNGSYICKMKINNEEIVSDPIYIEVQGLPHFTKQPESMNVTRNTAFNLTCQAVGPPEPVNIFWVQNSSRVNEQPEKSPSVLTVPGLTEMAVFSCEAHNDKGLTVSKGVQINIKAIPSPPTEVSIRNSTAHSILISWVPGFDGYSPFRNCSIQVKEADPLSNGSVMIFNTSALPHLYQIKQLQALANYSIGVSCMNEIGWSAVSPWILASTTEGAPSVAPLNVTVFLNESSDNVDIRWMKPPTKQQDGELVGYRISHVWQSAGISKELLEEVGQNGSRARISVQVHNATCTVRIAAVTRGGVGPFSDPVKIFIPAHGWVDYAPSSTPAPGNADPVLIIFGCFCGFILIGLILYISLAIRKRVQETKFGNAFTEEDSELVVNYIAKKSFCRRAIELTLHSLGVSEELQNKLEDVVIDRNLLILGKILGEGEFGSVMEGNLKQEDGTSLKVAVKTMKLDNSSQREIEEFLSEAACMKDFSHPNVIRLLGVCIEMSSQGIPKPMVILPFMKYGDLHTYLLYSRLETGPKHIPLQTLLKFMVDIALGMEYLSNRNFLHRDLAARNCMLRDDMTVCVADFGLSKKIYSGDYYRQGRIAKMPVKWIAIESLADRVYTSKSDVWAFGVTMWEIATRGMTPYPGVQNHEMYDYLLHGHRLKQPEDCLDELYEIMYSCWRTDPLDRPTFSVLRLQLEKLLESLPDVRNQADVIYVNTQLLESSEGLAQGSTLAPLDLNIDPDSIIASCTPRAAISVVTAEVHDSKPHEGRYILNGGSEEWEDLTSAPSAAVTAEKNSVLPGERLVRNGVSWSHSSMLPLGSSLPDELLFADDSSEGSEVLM
UniProt Q9UBE8, sequence (whole entry, looked up): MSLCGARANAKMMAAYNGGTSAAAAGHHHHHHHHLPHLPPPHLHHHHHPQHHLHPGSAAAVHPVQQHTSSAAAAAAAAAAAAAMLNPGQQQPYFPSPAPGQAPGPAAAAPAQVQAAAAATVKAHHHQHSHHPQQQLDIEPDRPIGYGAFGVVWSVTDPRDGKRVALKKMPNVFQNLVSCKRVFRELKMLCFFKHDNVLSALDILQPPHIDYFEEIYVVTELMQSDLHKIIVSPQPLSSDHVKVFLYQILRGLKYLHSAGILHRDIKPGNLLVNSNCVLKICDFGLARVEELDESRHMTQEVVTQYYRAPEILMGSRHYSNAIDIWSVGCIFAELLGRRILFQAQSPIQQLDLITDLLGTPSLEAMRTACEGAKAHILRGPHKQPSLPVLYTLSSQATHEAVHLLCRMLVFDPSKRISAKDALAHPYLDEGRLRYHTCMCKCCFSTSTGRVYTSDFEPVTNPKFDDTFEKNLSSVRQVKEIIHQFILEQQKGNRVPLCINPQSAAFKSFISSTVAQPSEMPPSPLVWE
UniProt Q02763, sequence (whole entry, looked up): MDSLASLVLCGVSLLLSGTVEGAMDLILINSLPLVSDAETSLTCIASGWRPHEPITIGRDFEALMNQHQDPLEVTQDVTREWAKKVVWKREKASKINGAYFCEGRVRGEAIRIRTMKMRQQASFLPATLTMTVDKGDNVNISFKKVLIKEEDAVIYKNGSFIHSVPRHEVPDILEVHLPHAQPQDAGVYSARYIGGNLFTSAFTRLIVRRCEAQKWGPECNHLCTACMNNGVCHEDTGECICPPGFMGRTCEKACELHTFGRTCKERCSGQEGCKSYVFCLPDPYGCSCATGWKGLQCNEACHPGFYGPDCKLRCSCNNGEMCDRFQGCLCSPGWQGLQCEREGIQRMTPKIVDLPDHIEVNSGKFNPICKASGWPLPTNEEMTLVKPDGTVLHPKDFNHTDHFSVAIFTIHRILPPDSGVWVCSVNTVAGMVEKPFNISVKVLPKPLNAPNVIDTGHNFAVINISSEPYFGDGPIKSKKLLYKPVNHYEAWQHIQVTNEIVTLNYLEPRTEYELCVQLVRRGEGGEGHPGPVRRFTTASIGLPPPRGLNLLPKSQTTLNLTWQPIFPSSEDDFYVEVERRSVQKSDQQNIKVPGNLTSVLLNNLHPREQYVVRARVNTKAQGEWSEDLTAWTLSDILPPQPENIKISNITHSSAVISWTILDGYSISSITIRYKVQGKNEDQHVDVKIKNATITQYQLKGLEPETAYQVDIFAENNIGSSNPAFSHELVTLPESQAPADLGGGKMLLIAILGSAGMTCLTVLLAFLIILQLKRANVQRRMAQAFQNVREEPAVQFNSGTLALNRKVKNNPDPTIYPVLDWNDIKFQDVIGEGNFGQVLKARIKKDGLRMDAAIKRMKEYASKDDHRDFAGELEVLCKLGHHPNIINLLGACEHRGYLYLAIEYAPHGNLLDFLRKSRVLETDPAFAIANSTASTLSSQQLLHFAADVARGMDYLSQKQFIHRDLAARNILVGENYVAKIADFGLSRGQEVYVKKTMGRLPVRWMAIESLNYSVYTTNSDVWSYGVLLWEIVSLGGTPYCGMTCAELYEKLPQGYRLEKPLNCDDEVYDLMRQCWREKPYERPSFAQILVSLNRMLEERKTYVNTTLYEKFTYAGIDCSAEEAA
UniProt P30291, sequence (whole entry, looked up): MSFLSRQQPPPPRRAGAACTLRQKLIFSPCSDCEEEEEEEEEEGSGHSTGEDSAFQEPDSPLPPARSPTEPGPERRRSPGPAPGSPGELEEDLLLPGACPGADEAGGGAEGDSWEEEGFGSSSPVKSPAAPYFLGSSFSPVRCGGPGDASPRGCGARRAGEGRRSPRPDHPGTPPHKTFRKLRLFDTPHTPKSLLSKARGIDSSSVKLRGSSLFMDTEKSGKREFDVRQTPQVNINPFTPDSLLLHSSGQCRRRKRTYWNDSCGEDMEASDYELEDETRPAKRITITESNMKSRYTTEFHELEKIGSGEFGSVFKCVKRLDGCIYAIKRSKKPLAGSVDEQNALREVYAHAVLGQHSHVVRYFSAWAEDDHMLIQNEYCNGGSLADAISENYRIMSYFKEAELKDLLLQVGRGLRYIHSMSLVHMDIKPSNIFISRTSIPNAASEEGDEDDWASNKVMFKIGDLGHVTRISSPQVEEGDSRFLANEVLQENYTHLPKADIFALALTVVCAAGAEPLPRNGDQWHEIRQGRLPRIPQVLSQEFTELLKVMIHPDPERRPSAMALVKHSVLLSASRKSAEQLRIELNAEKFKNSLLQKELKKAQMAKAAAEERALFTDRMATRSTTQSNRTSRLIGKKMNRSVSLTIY
UniProt P0C264, sequence (whole entry, looked up): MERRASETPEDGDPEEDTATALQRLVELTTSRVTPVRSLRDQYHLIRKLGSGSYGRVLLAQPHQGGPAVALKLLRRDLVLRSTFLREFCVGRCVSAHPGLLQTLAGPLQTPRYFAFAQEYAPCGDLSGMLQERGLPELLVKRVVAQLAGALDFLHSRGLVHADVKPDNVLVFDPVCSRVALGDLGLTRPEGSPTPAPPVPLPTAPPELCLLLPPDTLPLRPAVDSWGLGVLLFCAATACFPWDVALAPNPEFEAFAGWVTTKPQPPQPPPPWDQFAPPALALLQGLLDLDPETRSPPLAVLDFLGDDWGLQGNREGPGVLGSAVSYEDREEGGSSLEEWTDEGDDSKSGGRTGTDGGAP

Sample 1
SMILES: CN(C)S(=O)(=O)c1ccc2c(c1)/C(=C/c1cc3c([nH]1)CCCC3)C(=O)N2
Read-out: enzyme activity
Action: inhibitor
Tested at: 0.5 µM
Reference: control
It gave 106% for remaining activity (MAP3K5 (Homo sapiens, UniProt Q99683)).
The remaining activity was 101% (MAPKAPK2 (Homo sapiens, UniProt P49137)).
For GSK3B (Homo sapiens, UniProt P49841): remaining activity read 95.6%.
The remaining activity was 105% (ACVR1B (Homo sapiens, UniProt P36896)).
It gave 57.1% for remaining activity (FGFR3 (Homo sapiens, UniProt P22607)).
The remaining activity was 80.6% (TBK1 (Homo sapiens, UniProt Q9UHD2)).
FGFR1 (Homo sapiens, UniProt P11362) — remaining activity: 71.4%.
It gave 26.3% for remaining activity (ULK3 (Homo sapiens, UniProt Q6PHR2)).
MAP3K14 (Homo sapiens, UniProt Q99558) — remaining activity: 94.6%.
The remaining activity was 102% (MAPK3 (Homo sapiens, UniProt P27361)).
The remaining activity was 104% (MAP2K2 (Homo sapiens, UniProt P36507)).
JAK3 (Homo sapiens, UniProt P52333) — remaining activity: 64.8%.
For TEK (Homo sapiens, UniProt Q02763): remaining activity read 95.4%.
For MERTK (Homo sapiens, UniProt Q12866): remaining activity read 20.9%.
The remaining activity was 94.5% (WEE1 (Homo sapiens, UniProt P30291)).

Sample 2
Species: human
Medium: microsomes or S9
Tested at: 2 µM
Time: 0.5 h
With `COCCN1CCS(=O)(=O)c2c(Cl)c(F)nc(Oc3ccc(OC)cc3)c21` the remaining compound was 10.4%.
With `O=C(c1ccc(Nc2cc(-n3cccc3)ncn2)cc1)N1CCN(Cc2ccc3c(c2)OCO3)CC1` the remaining compound was 50%.
`CC1(C)CC(NS(=O)(=O)c2ccccc2F)CC(C)(C)N1` gave a remaining compound of greater than 99%.
For `C[C@]12CC[C@@H]3c4ccc(O)cc4CC[C@H]3[C@@H]1CC[C@@H]2O`, the remaining compound was greater than 99.9%.
`O=c1[nH]nc(-c2ccc(OCCN3CCCCC3)cc2)cc1-c1ccc(Cl)cc1` has a remaining compound of greater than 100%.
For `COc1ccc(COc2ncnc3sc(C)c(C)c23)cc1F`, the remaining compound was 1.61%.

Sample 3
Molecule: B1 (IAA4)
Method: two-hybrid
Reference: out of 4 tests
Direction: higher = firmer interaction
B1: IAA4 (Arabidopsis thaliana, UniProt P33077); chain MEKVDVYDELVNLKATELRLGLPGTEETVSCGKSNKRVLPEATEKEIESTGKTETASPPKAQIVGWPPVRSYRKNNVQTKKSESEGQGNYVKVSMDGAPYLRKIDLTMYKQYPELMKSLENMFKFSVGEYFEREGYKGSDFVPTYEDKDGDWMLVGDVPWEMFVSSCKRLRIMKGSEVKGLGCGGL
ARF7 1030-1164 (Arabidopsis thaliana, UniProt P93022) — positive tests: 4.
ARF19 948-1086 (Arabidopsis thaliana, UniProt Q8RYC8) — positive tests: 4.
The positive tests was 0 (ARF14 497-605 (Arabidopsis thaliana, UniProt Q9LQE8)).
ARF4 660-788 (Arabidopsis thaliana, UniProt Q9ZTX9) — positive tests: 0.
For ARF17 (Arabidopsis thaliana, UniProt Q84WU6); weak activation fusion: positive tests read 0.
It gave 3 for positive tests (IAA5 (Arabidopsis thaliana, UniProt P33078)).

Sample 4
Compound: O=C(NS(=O)(=O)c1ccc(NCC2CCOCC2)c([N+](=O)[O-])c1)c1ccc(N2CCN(Cc3ccc(C(F)(F)F)cc3-c3ccc(Cl)cc3)CC2)cc1Oc1cnc2[nH]ccc2c1
Read-out: cell-free assay
Method: competition with immobilised ligand
Tested at: 1 µM
For TAOK1 (Homo sapiens, UniProt Q7L7X3): remaining binding read 87%.
It gave 100% for remaining binding (KIT (Homo sapiens, UniProt P10721, L576P)).
The remaining binding was 93% (NLK (Homo sapiens, UniProt Q9UBE8)).
It gave 100% for remaining binding (BRSK1 (Homo sapiens, UniProt Q8TDC3)).
Tyrosine-protein kinase ABL1, non-phosphorylated (ABL1, Homo sapiens, UniProt P00519, H396P) — remaining binding: 94%.
For SBK3 (Homo sapiens, UniProt P0C264): remaining binding read 100%.

Mixed results
`CC(=O)N[C@@H](Cc1c[nH]c2ccccc12)C(=O)N[C@@H](CCC(=O)C=[N+]=[N-])C(=O)OC(C)C` gave a tumour volume of 0 mm3 (mice, MC-38 tumour rechallenge; 0.26 mg/kg, day 57 after injection).

Some of these lines once more (sample 1):
The remaining activity was 104% (MAP2K2 (Homo sapiens, UniProt P36507)).
JAK3 (Homo sapiens, UniProt P52333) — remaining activity: 64.8%.
For TEK (Homo sapiens, UniProt Q02763): remaining activity read 95.4%.
For MERTK (Homo sapiens, UniProt Q12866): remaining activity read 20.9%.
